{"data": "Measurements from different studies", "note": "Each numbered part is a random draw from the data of one study; scales do not carry over between parts."}
{"data": "Series 1", "target": "Histone acetyltransferase KAT6A, winged helix 1, GST fusion (KAT6A, Homo sapiens, UniProt Q92794, residues 1-85)", "technique": "protein binding microarray", "form": "double-stranded DNA, one strand shown", "matrix": "in vitro", "tested at": "not given", "notes": "8-mer, flanks averaged, mean of 2 arrays, mostly near background", "baseline": "not given", "reading": "higher = stronger binding", "Residues (chain)": "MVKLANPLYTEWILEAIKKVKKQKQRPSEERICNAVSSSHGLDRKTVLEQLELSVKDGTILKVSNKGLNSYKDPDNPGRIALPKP"}
{"Oligonucleotide": "AAATGAAA", "E-score": -0.0985}
{"Oligonucleotide": "TGGGGACA", "E-score": -0.28}
{"Oligonucleotide": "ATTTGCCG", "E-score": 0.262}
{"Oligonucleotide": "AACTCCTA", "E-score": -0.282}
{"Oligonucleotide": "CTCTTTTC", "E-score": -0.104}
{"Oligonucleotide": "CAATGGTC", "E-score": -0.133}
{"Oligonucleotide": "AGACCTAA", "E-score": -0.0804}
{"data": "Series 2", "target": "Centromere-binding protein 1, full length, N-terminal tag (CBF1, Saccharomyces cerevisiae, UniProt P17106, residues 1-351)", "technique": "protein-binding microarray", "form": "double-stranded DNA, one strand shown", "matrix": "in vitro", "tested at": "0.8 µM", "notes": "whole 60-bp probe, no competitor", "reading": "higher = stronger binding", "sequence of UniProt P17106 (whole entry, looked up)": "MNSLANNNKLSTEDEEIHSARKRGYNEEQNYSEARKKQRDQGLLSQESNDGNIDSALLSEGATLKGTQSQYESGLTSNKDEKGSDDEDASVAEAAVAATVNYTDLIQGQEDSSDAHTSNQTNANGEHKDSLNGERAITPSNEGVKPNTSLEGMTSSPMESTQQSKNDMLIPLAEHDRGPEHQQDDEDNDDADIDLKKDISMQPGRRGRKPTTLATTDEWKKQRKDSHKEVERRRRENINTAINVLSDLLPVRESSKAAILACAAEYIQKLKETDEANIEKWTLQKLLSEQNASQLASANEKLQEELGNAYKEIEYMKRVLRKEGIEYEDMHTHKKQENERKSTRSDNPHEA"}
{"Oligonucleotide": "CTAAAATTCAAGGTGCTGATGTTCAGTAAAGCCTTCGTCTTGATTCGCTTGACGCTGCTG", "fluorescence intensity": "551 a.u."}
{"Oligonucleotide": "CTAAATAGGAAATATCACGCTACCTGACAAAAATTCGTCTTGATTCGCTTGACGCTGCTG", "fluorescence intensity": "887 a.u."}
{"Oligonucleotide": "GAACTAGTCTATGATCCGTCACCTATTTTTATTTAGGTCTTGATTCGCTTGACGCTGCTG", "fluorescence intensity": "542 a.u."}
{"Oligonucleotide": "GAACAATGCCTCGGAAACCTGATGACGAATTGCTAGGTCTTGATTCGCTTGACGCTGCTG", "fluorescence intensity": "527 a.u."}
{"Oligonucleotide": "GAAATAACACGTCCACGTGGAACTATTAAATTGTAGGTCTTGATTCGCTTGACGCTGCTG", "fluorescence intensity": "4090 a.u."}
{"Oligonucleotide": "GAATGCATTTGCTGTCTGCTGATGTCAATTAATTAGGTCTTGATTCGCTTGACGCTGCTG", "fluorescence intensity": "889 a.u."}
{"Oligonucleotide": "CTATAAAGATGAACAGGTGAGACAATATCAAAGTTCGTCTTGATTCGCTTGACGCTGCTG", "fluorescence intensity": "675 a.u."}
{"Oligonucleotide": "GAATGCAATTATTAACACGTTTTCATCCGTTTATAGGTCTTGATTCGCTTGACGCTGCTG", "fluorescence intensity": "750 a.u."}
{"data": "Series 3", "target": "RING finger protein unkempt homolog, zinc fingers 1-6, SBP tag (UNK, Homo sapiens, UniProt Q9C0B0, residues 30-357)", "technique": "RNA Bind-n-Seq", "form": "RNA", "matrix": "in vitro", "tested at": "100 nM", "notes": "RNA with constant flanks, vertebrate orthologous sites, ends assumed", "baseline": "input RNA pool", "reading": "higher = stronger binding", "sequence of UniProt Q9C0B0 (30-357, looked up)": "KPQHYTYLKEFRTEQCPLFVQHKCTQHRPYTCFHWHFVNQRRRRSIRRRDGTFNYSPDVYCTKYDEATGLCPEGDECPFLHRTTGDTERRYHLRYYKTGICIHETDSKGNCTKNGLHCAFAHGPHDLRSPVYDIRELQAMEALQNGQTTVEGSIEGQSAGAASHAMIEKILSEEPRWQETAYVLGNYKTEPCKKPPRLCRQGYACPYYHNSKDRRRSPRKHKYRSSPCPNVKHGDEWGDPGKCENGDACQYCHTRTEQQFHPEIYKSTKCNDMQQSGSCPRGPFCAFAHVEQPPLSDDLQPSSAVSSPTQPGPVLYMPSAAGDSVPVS"}
{"Oligonucleotide": "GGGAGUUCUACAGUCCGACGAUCAUUACUGUUAAGCACUGUGUUCCAGACCGUGUCUGACUUAGUGUAACCUAGGAGAUUUUCUAGUUUUAUUUUAACGAAACCCUGAUUGGCGCACAGCAGUGAGGAGAACAGCGUCUUUUACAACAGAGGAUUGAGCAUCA", "bound/input enrichment [ratio]": 1.09}
{"Oligonucleotide": "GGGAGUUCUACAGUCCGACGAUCGCUGUGAUCCCUUUAACAUACACAGAAAACUGUCCAAGAAAAACCUGCGAGCAGUUGACUUAGAUGAUGCAGCUUUUCUGAGUGCCAAGUUUGGAAGACAGUUUGUUCCUGGUUGGAAGCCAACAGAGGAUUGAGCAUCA", "bound/input enrichment [ratio]": 0.361}
{"Oligonucleotide": "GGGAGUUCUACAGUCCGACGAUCUUCCAUCUCGUGCCUCUCCCAGUGGGGAGUGGGGGAAACUGACCCUCAGCUGUUCCAAUCCAGUGGGGUUUUUUUAAUUUUUUUUUUGAUUUAAAAAAAUAUUGUAUUUAUUAUGACAAUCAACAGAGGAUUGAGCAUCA", "bound/input enrichment [ratio]": 0.592}
{"Oligonucleotide": "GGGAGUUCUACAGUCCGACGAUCGAUUUGGACCUGGGAGCAGAGCUAGGGAGCUGACUAAAGUAAAGCAGACUUGUAAAAUUGUAGCCAUAUGCAGUUGCACAACAACAGUACCAGCAUAGCAGCUGUGCUAAAGUAUUUAUACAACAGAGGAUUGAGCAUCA", "bound/input enrichment [ratio]": 0.603}
{"Oligonucleotide": "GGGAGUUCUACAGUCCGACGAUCAGUCUUACUUGGUUACUAGAAAUGUGUUUUUAUUUAUUGAGGAUAGUUUUGUGCUAAGUCUGUGUUAGAUUUUUGUUGUGUUGCUUUUGUUAUUUAAAAUAAAUAGAACUUUGUAUUUGACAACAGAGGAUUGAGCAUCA", "bound/input enrichment [ratio]": 0.744}
{"Oligonucleotide": "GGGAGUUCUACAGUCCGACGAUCCAGCUAAAGGAGUUAGCAUCUUUAUUUUUGUAUCAAAGAUAAAGGUUAUUUUGAAAUUAUUAGGAUUUUUACACAAGUCUUCGAAACAAAUUGUUUGCUCCUGAGGACCUCCCCGCCCCACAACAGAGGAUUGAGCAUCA", "bound/input enrichment [ratio]": 0.933}
{"data": "Other studies, line by line"}
{"Substance": "PhoQ, residues 284 288 289 292 302 303 ASASEQ", "target": "PhoP, residues 12 14 15 18 19 STWGI (Escherichia coli, UniProt P23836)", "test": "Sort-seq, item: YFP reporter", "system": "E. coli", "conditions": "PhoQ-PhoP variant library, with: 10 µM Mg2+", "scale": "baseline: high Mg2+ state, higher = stronger signaling", "endpoint": "fold induction", "result": 1.12}
{"note": "Excerpt of the above (series 2):"}
{"Oligonucleotide": "CTATAAAGATGAACAGGTGAGACAATATCAAAGTTCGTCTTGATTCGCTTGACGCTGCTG", "fluorescence intensity": "675 a.u."}
{"Oligonucleotide": "CTAAATAGGAAATATCACGCTACCTGACAAAAATTCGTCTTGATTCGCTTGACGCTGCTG", "fluorescence intensity": "887 a.u."}
{"Oligonucleotide": "CTAAAATTCAAGGTGCTGATGTTCAGTAAAGCCTTCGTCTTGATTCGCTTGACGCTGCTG", "fluorescence intensity": "551 a.u."}
{"Oligonucleotide": "GAAATAACACGTCCACGTGGAACTATTAAATTGTAGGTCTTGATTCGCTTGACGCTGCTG", "fluorescence intensity": "4090 a.u."}
